# Assay results pooled from the literature.
# Parts stem from different laboratories: compare values within a part only. Positions count from the first letter of the parent shown.

# Set 1
# Target: tungstate, free oxyanion
# Method: microfluidic competitive inhibition
# Sample: in vitro, cell-free expressed
# Concentration: not given
# Notes: derived from inhibition constants, unchanged parent 2230 nM
# Direction: lower = stronger binding
# Parent: PafA, mature enzyme, eGFP fusion (Elizabethkingia meningoseptica, UniProt Q9KJX5); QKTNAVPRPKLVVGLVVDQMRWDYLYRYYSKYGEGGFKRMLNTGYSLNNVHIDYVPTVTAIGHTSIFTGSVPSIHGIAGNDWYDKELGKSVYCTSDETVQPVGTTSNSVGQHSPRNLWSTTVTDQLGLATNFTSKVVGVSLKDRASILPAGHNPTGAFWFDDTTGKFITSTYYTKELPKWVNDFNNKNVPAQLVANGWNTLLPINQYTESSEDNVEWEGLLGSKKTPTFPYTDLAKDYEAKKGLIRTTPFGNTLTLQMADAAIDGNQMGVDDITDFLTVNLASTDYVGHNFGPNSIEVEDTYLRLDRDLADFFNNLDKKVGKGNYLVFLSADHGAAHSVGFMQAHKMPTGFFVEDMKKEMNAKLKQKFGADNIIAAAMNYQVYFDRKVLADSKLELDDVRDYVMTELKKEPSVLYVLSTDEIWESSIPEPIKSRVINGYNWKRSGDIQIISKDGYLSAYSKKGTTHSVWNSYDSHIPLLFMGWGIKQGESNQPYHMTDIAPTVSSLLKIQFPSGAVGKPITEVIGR
Change,oxyanion analog dissociation constant
G463A,863 nM
V413A,2.83 µM
N42G,2.01 µM

# Set 2
# Target: UDP-N-acetylglucosamine--peptide N-acetylglucosaminyltransferase 110 kDa subunit (OGT, Homo sapiens, UniProt O15294)
# Chain of UniProt O15294 (whole entry, looked up): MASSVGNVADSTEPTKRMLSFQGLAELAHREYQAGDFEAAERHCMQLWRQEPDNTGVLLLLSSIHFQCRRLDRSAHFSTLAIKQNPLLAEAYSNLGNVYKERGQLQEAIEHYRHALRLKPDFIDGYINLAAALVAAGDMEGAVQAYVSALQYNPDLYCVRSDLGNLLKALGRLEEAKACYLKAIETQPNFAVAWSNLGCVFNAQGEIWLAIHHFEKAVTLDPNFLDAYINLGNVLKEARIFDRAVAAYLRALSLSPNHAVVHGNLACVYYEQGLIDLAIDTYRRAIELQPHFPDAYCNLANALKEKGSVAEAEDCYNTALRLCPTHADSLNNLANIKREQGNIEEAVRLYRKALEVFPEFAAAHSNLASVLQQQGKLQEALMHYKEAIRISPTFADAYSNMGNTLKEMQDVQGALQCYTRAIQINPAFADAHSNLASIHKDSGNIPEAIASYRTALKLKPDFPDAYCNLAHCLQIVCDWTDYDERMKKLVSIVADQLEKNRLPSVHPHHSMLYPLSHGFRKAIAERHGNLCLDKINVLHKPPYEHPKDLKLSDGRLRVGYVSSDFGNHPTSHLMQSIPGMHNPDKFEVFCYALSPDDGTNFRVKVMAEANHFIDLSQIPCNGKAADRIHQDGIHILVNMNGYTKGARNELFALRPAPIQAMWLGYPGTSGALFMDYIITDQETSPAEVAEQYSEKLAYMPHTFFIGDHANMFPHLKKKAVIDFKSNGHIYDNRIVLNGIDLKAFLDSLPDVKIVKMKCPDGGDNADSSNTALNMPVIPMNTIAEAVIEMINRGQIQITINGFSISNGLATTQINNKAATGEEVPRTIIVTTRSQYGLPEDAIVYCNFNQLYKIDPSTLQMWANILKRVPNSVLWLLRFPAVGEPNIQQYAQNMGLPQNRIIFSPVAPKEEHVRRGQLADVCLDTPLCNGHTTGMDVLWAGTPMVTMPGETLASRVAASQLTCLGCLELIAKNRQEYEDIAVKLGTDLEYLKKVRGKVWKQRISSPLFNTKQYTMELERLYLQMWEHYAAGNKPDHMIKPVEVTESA
# Observed: binding
# Method: phage display NGS
# Form: peptide
# Notes: panning round 2
# Baseline: input library
Sequence,minimum log2 enrichment ratio
HIKWSTGWHHQGRT,1.94
GHHTHREYGYPSYQH,3.17
HADHKSPLFNHNTQH,2.18
RYLPIYQILTHTQPF,3.54

# Set 3
# Target: Ras GTPase-activating protein-binding protein 1, RRM domain (G3BP1, Homo sapiens, UniProt Q13283)
# Chain of UniProt Q13283 (whole entry, looked up): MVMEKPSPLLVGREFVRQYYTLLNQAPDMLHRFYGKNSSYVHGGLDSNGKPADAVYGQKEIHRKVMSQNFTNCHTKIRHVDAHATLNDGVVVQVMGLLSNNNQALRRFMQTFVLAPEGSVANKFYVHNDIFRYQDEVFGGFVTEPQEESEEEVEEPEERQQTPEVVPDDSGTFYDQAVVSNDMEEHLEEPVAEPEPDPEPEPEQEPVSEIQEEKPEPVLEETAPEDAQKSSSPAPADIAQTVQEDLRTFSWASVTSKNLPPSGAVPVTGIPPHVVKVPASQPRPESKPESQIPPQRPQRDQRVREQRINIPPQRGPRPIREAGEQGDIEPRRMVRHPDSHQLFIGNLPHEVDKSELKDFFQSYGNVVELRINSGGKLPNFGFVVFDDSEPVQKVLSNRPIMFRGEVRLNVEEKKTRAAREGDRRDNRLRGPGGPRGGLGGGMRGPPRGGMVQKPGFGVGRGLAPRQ
# Method: RNA Bind-n-Seq
# Form: RNA
# Sample: in vitro
# Concentration: 1 µM
# Notes: whole 134-nt RNA, ends assumed
# Added: 150 mM KCl
# Baseline: input library
# Direction: higher = stronger binding
Sequence,log2 enrichment
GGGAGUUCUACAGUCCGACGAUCCCUGUGCUACACAUCGUAUGUACCGAAUCAAAUUUUUUUAAAUUUUUUUAAACCCCCAAAAAAGUAUUAUGUUACGCCGUUCGGAUCUGCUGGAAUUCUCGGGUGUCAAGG,-1.11
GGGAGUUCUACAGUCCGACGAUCUCCUGUGCUACACAUCGUAUGUACCGAAUCGGGCCCCCCGGGCCCCCCGGGGCCCCCCGGAAAGUAUUAUGUUACGCCGUUCGGAUCUGCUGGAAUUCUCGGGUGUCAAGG,-0.425
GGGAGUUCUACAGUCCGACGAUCGUCCUGUGCUACACAUCGUAUGUACCGAAUCGGGUUUUUGGGUUUUUGGGGUUUUUGGAAAGUAUUAUGUUACGCCGUUCGGAUCUGCACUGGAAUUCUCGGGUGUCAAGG,-0.182
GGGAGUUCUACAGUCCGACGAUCCACAGACAGCACGCACCCACACAGACACAGAGGGAAGGGGUUGGGAUGGGGACAGGGUGCACAGCAGGGCGGGGUAGGACCCCAGCCCCUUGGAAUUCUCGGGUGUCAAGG,-0.207
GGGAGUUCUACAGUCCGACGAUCCACAGACAACACGCACCCACACAGACACAGAGGGAAGGGGUUGGGAUGGGGACAGGGUGCACAGCAGGGCGGGGUAGUACCCCAGCCCCUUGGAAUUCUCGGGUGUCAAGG,-0.275
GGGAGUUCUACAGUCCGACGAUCCACAGACAACACGCAAACACACAGACACAGAGGGAAGGGGUUGGGAUGGGGACAGGGUGCACAGCAGGGCGGGGUAGGACCCCAGCCCCUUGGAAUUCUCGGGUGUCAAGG,-0.105
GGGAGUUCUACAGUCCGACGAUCCUCAAGUCCUGUGCUACACAUCGUAUGUACCGAAUCGGAAGGGAAGGGGAAGGAAAGUAUUAUGUUACGCCGUUCGGAUCUGCACUUCCAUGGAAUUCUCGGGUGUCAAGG,-0.188
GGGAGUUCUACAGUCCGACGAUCCAAGUCCUGUGCUACACAUCGUAUGUACCGAAUCGGGCCCCGGGCCCCGGCCCCGGAAAGUAUUAUGUUACGCCGUUCGGAUCUGCACUUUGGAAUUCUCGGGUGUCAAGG,-1.1

# Further values, each from its own experiment
# Target: CCND3, cyclin fold, Cln2 fusion (human)
# Method: yeast growth competition, sequencing
# Sample: yeast
# Notes: weak parent motif
# Baseline: not given
# Direction: higher = stronger binding
# Parent: viral docking peptide; PTARRRLLHDLDT
Change,normalised enrichment score
PTARARLLHDLDT [R5A],0.119
PTARRALLHDLDT [R6A],0.167

# A few entries again (set 1):
Change,oxyanion analog dissociation constant
V413A,2.83 µM
N42G,2.01 µM
